Published values collected from several papers.
Parts stem from different laboratories: compare values within a part only. Values joined by “and” are separate records of one study, mostly repeats; a detail may differ.
UniProt P52333, sequence (whole entry, looked up): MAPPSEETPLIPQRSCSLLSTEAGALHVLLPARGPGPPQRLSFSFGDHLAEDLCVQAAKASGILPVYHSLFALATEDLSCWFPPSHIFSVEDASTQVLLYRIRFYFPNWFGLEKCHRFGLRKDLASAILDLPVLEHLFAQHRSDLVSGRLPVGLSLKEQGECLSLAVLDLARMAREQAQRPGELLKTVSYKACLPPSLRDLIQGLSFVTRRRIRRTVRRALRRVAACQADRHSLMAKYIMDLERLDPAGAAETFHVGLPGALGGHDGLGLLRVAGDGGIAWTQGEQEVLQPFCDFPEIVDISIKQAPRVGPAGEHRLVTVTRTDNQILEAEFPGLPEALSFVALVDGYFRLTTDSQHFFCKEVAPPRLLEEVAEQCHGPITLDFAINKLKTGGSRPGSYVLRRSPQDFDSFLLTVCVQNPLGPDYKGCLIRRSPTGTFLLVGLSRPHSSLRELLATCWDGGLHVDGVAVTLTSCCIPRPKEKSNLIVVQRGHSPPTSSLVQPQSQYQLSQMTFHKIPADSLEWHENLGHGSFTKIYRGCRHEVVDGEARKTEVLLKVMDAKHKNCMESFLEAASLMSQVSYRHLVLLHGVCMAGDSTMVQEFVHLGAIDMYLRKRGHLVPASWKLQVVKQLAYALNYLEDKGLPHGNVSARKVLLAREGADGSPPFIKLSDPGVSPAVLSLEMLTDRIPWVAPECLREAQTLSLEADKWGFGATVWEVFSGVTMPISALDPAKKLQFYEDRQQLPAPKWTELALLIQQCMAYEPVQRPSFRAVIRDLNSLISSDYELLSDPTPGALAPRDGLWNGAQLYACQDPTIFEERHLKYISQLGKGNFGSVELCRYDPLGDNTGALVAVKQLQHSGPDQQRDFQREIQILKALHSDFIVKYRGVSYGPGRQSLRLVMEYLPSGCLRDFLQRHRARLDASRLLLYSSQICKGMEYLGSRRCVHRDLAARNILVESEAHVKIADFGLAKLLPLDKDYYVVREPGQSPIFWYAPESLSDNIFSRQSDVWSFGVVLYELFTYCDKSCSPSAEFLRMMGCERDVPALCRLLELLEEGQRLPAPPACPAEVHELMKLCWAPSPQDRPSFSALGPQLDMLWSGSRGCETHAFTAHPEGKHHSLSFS
UniProt P54646, sequence (whole entry, looked up): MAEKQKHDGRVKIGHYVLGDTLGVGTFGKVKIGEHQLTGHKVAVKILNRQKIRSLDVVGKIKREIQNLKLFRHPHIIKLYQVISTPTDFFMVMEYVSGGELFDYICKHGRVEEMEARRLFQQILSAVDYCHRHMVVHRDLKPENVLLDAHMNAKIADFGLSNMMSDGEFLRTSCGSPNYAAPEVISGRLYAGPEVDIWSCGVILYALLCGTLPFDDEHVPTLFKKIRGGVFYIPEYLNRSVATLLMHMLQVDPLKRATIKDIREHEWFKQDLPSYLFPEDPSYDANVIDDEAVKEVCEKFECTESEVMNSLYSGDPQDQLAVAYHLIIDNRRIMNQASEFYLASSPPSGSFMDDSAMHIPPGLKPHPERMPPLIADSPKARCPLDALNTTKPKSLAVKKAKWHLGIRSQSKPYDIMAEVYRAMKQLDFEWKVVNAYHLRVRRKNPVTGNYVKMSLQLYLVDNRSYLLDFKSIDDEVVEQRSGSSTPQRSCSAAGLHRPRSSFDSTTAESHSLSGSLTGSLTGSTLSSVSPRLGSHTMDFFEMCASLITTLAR
UniProt Q9Y6E0, sequence (whole entry, looked up): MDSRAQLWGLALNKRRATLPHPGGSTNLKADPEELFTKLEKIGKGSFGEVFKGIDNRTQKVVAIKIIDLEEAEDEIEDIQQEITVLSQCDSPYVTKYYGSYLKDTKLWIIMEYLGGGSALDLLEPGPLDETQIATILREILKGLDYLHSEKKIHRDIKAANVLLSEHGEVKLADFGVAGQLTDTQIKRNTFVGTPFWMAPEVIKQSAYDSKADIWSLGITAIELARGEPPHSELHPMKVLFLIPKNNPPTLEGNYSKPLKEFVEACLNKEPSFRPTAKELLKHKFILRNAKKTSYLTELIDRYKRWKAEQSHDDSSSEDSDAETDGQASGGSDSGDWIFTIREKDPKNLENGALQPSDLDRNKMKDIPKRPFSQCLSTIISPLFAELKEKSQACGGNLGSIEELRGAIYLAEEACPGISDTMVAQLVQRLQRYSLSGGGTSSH
UniProt P29317, sequence (whole entry, looked up): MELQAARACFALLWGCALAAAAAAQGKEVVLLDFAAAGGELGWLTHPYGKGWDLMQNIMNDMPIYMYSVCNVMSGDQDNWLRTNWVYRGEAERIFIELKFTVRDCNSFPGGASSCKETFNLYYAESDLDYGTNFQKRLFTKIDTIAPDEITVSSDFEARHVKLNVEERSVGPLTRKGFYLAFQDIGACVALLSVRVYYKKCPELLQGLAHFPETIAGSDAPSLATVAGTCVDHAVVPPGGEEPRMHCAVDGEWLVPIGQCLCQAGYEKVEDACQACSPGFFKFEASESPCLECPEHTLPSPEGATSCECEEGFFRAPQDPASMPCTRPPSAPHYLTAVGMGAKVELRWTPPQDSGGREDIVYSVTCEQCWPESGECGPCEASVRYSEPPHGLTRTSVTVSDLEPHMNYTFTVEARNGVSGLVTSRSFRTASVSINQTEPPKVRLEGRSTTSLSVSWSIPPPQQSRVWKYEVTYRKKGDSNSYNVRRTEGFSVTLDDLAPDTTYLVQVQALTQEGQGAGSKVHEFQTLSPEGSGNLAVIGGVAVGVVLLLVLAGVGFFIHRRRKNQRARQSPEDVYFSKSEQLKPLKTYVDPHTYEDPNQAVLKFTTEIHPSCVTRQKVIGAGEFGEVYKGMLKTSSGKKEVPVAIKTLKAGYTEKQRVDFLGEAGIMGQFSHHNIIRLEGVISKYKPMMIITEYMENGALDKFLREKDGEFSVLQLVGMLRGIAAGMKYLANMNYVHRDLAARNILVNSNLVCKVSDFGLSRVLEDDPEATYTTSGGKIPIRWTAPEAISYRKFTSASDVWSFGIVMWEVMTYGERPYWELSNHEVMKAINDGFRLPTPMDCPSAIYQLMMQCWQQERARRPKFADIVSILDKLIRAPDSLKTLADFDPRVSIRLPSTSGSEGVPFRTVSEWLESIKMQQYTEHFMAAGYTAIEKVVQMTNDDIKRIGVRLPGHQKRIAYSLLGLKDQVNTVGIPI
UniProt P57078, sequence (whole entry, looked up): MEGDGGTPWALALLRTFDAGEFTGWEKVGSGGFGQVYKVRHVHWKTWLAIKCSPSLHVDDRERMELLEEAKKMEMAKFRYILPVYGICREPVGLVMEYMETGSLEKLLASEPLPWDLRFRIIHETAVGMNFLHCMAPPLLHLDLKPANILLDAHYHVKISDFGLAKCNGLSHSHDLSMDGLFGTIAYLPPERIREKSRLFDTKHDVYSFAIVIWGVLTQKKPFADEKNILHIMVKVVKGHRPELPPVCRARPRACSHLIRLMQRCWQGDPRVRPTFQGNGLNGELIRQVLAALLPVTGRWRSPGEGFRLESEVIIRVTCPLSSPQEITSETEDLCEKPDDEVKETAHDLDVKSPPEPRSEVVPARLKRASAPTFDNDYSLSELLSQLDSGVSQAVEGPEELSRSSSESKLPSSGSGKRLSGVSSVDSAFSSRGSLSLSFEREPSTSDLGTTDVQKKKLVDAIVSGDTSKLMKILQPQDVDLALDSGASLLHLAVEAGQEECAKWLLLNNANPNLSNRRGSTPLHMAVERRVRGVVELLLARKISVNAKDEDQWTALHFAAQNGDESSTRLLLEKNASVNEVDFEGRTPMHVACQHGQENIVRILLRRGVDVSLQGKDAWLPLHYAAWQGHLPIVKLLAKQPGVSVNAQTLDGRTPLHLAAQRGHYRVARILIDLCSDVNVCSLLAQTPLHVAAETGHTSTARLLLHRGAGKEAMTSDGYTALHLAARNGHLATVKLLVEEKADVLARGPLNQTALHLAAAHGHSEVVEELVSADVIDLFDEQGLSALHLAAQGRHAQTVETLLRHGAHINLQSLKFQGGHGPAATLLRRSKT

Series 1 — read-out: binding; mode: competitor; technique: NanoBRET; cells: HEK293; measurement: normalized BRET
Structure (SMILES): CC(=O)N1CCN(c2nc(OC[C@@H]3CCCN3C)nc3c2CCN(c2cccc4cccc(Cl)c24)C3)C[C@@H]1CC#N
KRAS G12D: GTPase KRas (KRAS, Homo sapiens, UniProt P01116, G12D)
KRAS G12D; 1.24 µM: 97.4% and 87.4% and 93.2%
KRAS G12D; 15.2 nM: 91.3% and 98.3% and 99.3%
GTPase KRas (KRAS, Homo sapiens, UniProt P01116, Q61L); 11.1 µM: 20.9% and 26% and 27.6%
KRAS G12D; 11.1 µM: 82.8% and 87.5% and 85.3%
GTPase KRas (KRAS, Homo sapiens, UniProt P01116, G13D); 1.24 µM: 49.8% and 47.6% and 46.8%
GTPase KRas (KRAS, Homo sapiens, UniProt P01116, Q61H); 33.3 µM: 14.1% and 10.2% and 9.1%
GTPase KRas (KRAS, Homo sapiens, UniProt P01116, Q61R); 3.7 µM: 105% and 83.4% and 94.3%
KRAS G12D; 45.7 nM: 93.9% and 93.7% and 95.8%

Series 2 — read-out: enzyme activity; mode: inhibitor; concentration: 0.5 µM; relative to: control; measurement: remaining activity
Target: Serine/threonine-protein kinase D3 (PRKD3, Homo sapiens, UniProt O94806)
UniProt O94806, sequence (whole entry, looked up): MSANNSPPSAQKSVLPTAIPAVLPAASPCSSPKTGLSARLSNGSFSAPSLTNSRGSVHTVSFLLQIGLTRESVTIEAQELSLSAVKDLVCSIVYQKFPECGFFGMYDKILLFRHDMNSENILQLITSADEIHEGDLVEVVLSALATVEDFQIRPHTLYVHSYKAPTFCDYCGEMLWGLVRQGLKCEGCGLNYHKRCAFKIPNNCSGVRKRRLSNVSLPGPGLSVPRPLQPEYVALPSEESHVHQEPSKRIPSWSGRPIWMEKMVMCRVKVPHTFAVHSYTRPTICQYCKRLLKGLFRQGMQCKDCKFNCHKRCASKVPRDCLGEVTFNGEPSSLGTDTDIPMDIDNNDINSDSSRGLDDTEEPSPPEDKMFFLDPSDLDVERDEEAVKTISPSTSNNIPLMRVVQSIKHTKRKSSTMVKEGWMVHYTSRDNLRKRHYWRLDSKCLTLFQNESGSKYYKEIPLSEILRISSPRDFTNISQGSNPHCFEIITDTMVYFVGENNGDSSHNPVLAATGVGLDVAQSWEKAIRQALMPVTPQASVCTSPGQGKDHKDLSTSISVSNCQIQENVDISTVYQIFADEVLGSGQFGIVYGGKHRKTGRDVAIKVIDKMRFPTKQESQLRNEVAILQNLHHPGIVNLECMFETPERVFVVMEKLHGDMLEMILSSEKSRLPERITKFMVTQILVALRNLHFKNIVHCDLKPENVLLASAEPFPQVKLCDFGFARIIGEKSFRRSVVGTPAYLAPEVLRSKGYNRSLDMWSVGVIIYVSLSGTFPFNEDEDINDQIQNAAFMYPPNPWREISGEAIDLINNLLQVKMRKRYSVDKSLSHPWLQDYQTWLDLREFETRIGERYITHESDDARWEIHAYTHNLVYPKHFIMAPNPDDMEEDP
NCCNc1ncc(C(N)=O)c(Nc2cccc(C(F)(F)F)c2)n1: 13.5%
Cc1nc(-c2ccccc2)c(-c2ccncc2)o1: 94.3%
O=C1NC(=O)C(c2cn(CCCn3ccnc3)c3ccccc23)=C1Nc1ccccc1: 80%
CO[C@H]1C[C@@H]2CC[C@@H](C)[C@@](O)(O2)C(=O)C(=O)N2CCCC[C@H]2C(=O)O[C@H]([C@H](C)C[C@@H]2CC[C@@H](O)[C@H](OC)C2)CC(=O)[C@H](C)/C=C(\C)[C@@H](O)[C@@H](OC)C(=O)[C@H](C)C[C@H](C)/C=C/C=C/C=C/1C: 95.7%
COc1cc2nccc(Oc3ccc(NC(=S)NC(=O)c4ccccc4C)cc3)c2cc1OC: 97.8%
Cc1ccc(Nc2nccc(N(C)c3ccc4c(C)n(C)nc4c3)n2)cc1S(N)(=O)=O: 90%
O=C(CCCc1ccc(-c2ccccc2F)cc1)Nc1ccc(O)cc1: 96.9%
O=C(Nc1cccc(Nc2cc(Nc3cccc(C(F)(F)F)c3)ncn2)c1)C1CC1: 96.9%
O=c1c2ccccc2[nH]c(=S)n1CCN1CCC(=C(c2ccc(F)cc2)c2ccc(F)cc2)CC1: 101%
COc1ccc(C(=O)Nc2sc3c(c2C(N)=O)CCCC3)cc1OC: 103%
Nc1ncnc2n[nH]c(Nc3ccc(F)cc3)c12: 86.7%
Nc1[nH]nc2nc3ccccc3nc12: 87.3%
COc1cc2ncnc(Nc3ccc(Oc4ccccc4)cc3)c2cc1OC: 95.8%
O=C1NC(=O)C(c2cn(CCCO)c3ncccc23)=C1c1cnccn1: 78.2%
COc1ccc(CNC(=O)Nc2ncc([N+](=O)[O-])s2)cc1: 93.4%
CNC(=O)c1cc(Oc2ccc(NC(=O)Nc3ccc(Cl)c(C(F)(F)F)c3)cc2)ccn1: 94%

Series 3 — technique: competition with immobilised ligand; concentration: 1 µM; measurement: remaining binding
Structure (SMILES): CNC(=O)Nc1ccc2c(c1)CC[C@@]21OC(=O)N(CC(=O)N(Cc2ccc(F)cc2)[C@@H](C)C(F)(F)F)C1=O
Tyrosine-protein kinase ABL1, phosphorylated (ABL1, Homo sapiens, UniProt P00519, Y253F); cell-free assay: 81%
Tyrosine-protein kinase JAK3, JH1 (JAK3, Homo sapiens, UniProt P52333); cell-free assay: 73%
FLT1 (Homo sapiens, UniProt P17948); cell-free assay: 100%
PRKG2 (Homo sapiens, UniProt Q13237); cell-free assay: 86%
CSNK1E (Homo sapiens, UniProt P49674); cell-free assay: 80%
ALK (Homo sapiens, UniProt Q9UM73, C1156Y); cell-free assay: 88%
ACVR2B (Homo sapiens, UniProt Q13705); binding: 96%
NEK6 (Homo sapiens, UniProt Q9HC98); cell-free assay: 86%
CDKL2 (Homo sapiens, UniProt Q92772); binding: 100%
CAMK2B (Homo sapiens, UniProt Q13554); cell-free assay: 81%
CAMK1 (Homo sapiens, UniProt Q14012); cell-free assay: 95%
FLT3 (Homo sapiens, UniProt P36888); cell-free assay: 100%
NEK4 (Homo sapiens, UniProt P51957); cell-free assay: 94%
Myosin-IIIa (MYO3A, Homo sapiens, UniProt Q8NEV4); binding: 100%
PRKX (Homo sapiens, UniProt P51817); cell-free assay: 92%

Series 4 — measurement: remaining binding
SMILES: CN1CCN(C(=O)c2ccc(NC(=O)Nc3ccc(N(C)c4ccnc(Nc5ccc(CS(C)(=O)=O)cc5)n4)cc3)cc2)CC1
PAK4 (Homo sapiens, UniProt O96013); binding; 1 µM: 46%
PRKD3 (Homo sapiens, UniProt O94806); binding; 1 µM: 100%
MAP2K5 (Homo sapiens, UniProt Q13163); binding, competition with immobilised ligand; 1 µM: 0.1%
IRAK3 (Homo sapiens, UniProt Q9Y616); binding; 1 µM: 0.1%
CDC42BPG (Homo sapiens, UniProt Q6DT37); DiscoverX cell-free binding; 1000 nM: 64%
MAP3K14 (Homo sapiens, UniProt Q99558); binding; 1 µM: 100%
KIT (Homo sapiens, UniProt P10721, V559D); binding; 1 µM: 0%
PRKAA2 (Homo sapiens, UniProt P54646); binding; 1 µM: 87%
CDKL5 (Homo sapiens, UniProt O76039); binding; 1 µM: 100%
RIPK4 (Homo sapiens, UniProt P57078); binding; 1 µM: 57%
CSNK1G3 (Homo sapiens, UniProt Q9Y6M4); binding; 1 µM: 100%
BUB1 (Homo sapiens, UniProt O43683); binding; 1 µM: 46%
STK24 (Homo sapiens, UniProt Q9Y6E0); binding; 1 µM: 47%
PAK1 (Homo sapiens, UniProt Q13153); binding; 1 µM: 92%
EPHA2 (Homo sapiens, UniProt P29317); binding, competition with immobilised ligand; 1 µM: 85%

Excerpt of the above (series 2):
COc1cc2ncnc(Nc3ccc(Oc4ccccc4)cc3)c2cc1OC: 95.8%
O=c1c2ccccc2[nH]c(=S)n1CCN1CCC(=C(c2ccc(F)cc2)c2ccc(F)cc2)CC1: 101%
COc1cc2nccc(Oc3ccc(NC(=S)NC(=O)c4ccccc4C)cc3)c2cc1OC: 97.8%
Cc1ccc(Nc2nccc(N(C)c3ccc4c(C)n(C)nc4c3)n2)cc1S(N)(=O)=O: 90%
Nc1ncnc2n[nH]c(Nc3ccc(F)cc3)c12: 86.7%
CO[C@H]1C[C@@H]2CC[C@@H](C)[C@@](O)(O2)C(=O)C(=O)N2CCCC[C@H]2C(=O)O[C@H]([C@H](C)C[C@@H]2CC[C@@H](O)[C@H](OC)C2)CC(=O)[C@H](C)/C=C(\C)[C@@H](O)[C@@H](OC)C(=O)[C@H](C)C[C@H](C)/C=C/C=C/C=C/1C: 95.7%
